Results collected from several papers.
Numbered parts are unrelated; each lists some results of a single study. Substitutions count along the parent as printed.

Sample 1
Target: HLF, bZIP domain (human)
Method: DHFR protein complementation
Sample: yeast
Setting: single substitutions, most at no-binding floor
Relative to: wild-type JUN-FOS pair
Direction: higher = stronger binding
Starting sequence: JUN, bZIP domain (human); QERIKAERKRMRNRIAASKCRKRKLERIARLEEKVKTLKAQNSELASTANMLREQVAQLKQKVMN; partner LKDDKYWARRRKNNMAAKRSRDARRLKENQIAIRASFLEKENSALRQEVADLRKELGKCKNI
Variant	binding fitness [natural log]
T48G	-1.49
E54R	-1.34
L31W	-1.49
T48A	-1.23
N42Q	-1.5
T48P	-1.5
A46L	-1.34
L52H	-1.49
K36D	-1.39
T48V	-1.37
L52G	-1.52
A29H	-1.41
K34G	-1.42
T48R	-1.37
V56R	-1.43
A46N	-1.38

Sample 2
Target: Transcription factor Sp1 (SP1, Homo sapiens, UniProt P08047, residues 1-785, full length assumed)
Chain of UniProt P08047 (whole entry, looked up): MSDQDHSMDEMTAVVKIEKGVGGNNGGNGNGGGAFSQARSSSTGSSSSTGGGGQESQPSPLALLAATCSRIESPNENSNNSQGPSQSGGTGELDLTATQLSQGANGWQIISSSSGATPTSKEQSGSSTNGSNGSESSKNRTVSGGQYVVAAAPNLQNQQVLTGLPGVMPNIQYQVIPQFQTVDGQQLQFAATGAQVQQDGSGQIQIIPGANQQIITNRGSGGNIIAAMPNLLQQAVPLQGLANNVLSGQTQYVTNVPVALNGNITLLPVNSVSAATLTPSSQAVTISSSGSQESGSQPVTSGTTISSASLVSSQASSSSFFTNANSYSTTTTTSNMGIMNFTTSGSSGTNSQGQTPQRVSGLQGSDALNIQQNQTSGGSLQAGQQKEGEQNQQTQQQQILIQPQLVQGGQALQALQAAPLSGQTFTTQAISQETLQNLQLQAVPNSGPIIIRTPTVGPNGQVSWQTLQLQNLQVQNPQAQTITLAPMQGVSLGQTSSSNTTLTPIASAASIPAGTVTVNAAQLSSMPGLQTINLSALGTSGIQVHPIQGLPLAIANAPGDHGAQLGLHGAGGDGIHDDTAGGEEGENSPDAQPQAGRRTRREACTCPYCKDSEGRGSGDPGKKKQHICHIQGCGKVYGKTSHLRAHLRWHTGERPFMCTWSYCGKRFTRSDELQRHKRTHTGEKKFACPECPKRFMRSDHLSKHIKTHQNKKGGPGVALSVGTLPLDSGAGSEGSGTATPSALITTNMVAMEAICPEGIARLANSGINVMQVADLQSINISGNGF
Method: protein-binding microarray
Molecule type: double-stranded DNA, one strand shown
Sample: in vitro
Tested at: not given
Setting: k-mer, scored over probes, only values ≥0.25
Direction: higher = stronger binding
Sequence	E-score
AGGAGGCG	0.285
AATGTGGG	0.36
AACAACAA	0.264
CCACACCA	0.326
ACCTACAT	0.251
GTGTATTA	0.286
CGCCACCC	0.295
ACCCCTAA	0.264
GGGGTAGA	0.295
ACATATAC	0.27
ATCCGCCC	0.382
TACAACAA	0.271
ACACCCCT	0.39
ACCCCTCG	0.278
AGGAAACG	0.265
AATGAACA	0.259
CGGTAACA	0.255
ATATATGG	0.397
AGGTATTA	0.257
AATGATAC	0.291
GGGATACA	0.252
AGGGGTTG	0.373
CCATCTCC	0.269
ACAAAGCA	0.251
CGCCCACG	0.275

Sample 3
Target: PABPC1L2, full length, GST fusion (mouse, UniProt A0ABA7IW68)
Method: RNAcompete
Molecule type: RNA
Sample: in vitro
Tested at: 20 nM
Setting: 7-mer, probes averaged, single round
Relative to: mean of 7-mers
Direction: higher = stronger binding
Residues (chain): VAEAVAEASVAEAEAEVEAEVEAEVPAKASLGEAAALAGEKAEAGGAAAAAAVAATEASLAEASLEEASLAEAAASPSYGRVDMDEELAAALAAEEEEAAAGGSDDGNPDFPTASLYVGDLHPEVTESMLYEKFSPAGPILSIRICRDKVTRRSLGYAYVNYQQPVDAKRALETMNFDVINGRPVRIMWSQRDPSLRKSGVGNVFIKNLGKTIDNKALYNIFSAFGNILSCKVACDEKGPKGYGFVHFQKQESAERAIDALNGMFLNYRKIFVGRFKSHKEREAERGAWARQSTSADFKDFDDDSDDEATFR
Sequence	7-mer Z-score
UAUCGCC	-0.271
UGGGUUG	-0.0772
CUAGAAC	-0.0283
GGCACCG	0.202
UGAUACA	-0.0264
GUAGCUA	-0.0899
CACGCGU	-0.0681
AGCCGUU	-0.416
GUCGCCG	-0.358
CCCGAGA	-0.179
ACUCCCA	-0.148
AGUGAUG	-0.244
GAGCGUG	0.0388
UUACCUA	-0.164
GUAUCUU	-0.273

Sample 4
Target: CCNA2, cyclin fold, Cln2 fusion (human)
Method: yeast growth competition, sequencing
Sample: yeast
Setting: strong parent motif
Relative to: not given
Direction: higher = stronger binding
Starting sequence: PLK5 docking peptide (human); IFRKVGQRLLTQC
Variant	normalised enrichment score
IFRKVAQRLLTQC [G6A]	1.69
IFAKVGQRLLTQC [R3A]	1.51
IFRKVGQRALTQC [L9A]	1.21
IFRKVGQRLATQC [L10A]	0.979
IFRKVGARLLTQC [Q7A]	1.73
IFRKVGQRLLTAC [Q12A]	2.31

Sample 5
Target: UBE2D1 UBC core domain (UniProt P51668)
Method: yeast two-hybrid
Sample: yeast
Setting: mostly zero background
Relative to: not given
Direction: higher = stronger interaction
B1: PHF7 RING domain (UniProt Q9BWX1); chain IQHGHVGEESCILCCEDLSQQSVENIQSPCCSQAIYHRKCIQKYAHTSAKHFFKCPQCNNRKEFPQEML
B2: TRIM3 RING domain (UniProt O75382); chain VQPMDKQFLVCSICLDRYQCPKVLPCLHTFCERCLQNYIPAQSLTLSCPVCRQTSILPEQGV
B3: TRIM10 RING domain (UniProt Q9UDY6); chain SVTSLADEVNCPICQGTLREPVTIDCGHNFCRACLTRYCEIPGPDLEESPTCPLCKEPFRPGSFRP
B4: RNF149 RING domain (UniProt Q8NC42); chain EKGIDVDAENCAVCIENFKVKDIIRILPCKHIFHRICIDPWLLDHRTCPMCKLDVIKALGYW
B5: TRIM35 RING domain (UniProt Q9UPQ4); chain PSRSFKEELLCAVCYDPFRDAVTLRCGHNFCRGCVSRCWEVQVSPTCPVCKDRASPADLRT
B6: RFPL2 RING domain (UniProt O75678); chain MAALFQEASSCPVCSDYLEKPMSLECGCAVCLKCINSLQKEPHGEDLLCCCSSMVSRKNKIRR
B7: RNF175 RING domain (UniProt Q8N4F7); chain LPTRSLSDNICAVCGQKIIVELDEEGLIENTYQLSCNHVFHEFCIRGWCIVGKKQTCPYCKEKVDLKRMIS
B8: UBE4A RING domain (UniProt Q14139); chain LQQQEEETYADACDEFLDPIMSTLMCDPVVLPSSRVTVDRSTIARHLLSDQTDPFNRSPLTMDQIRPNTELKEKIQRWLAERKQQKEQLE
B9: RNF150 RING domain (UniProt Q9ULK6); chain DKETESDFDNCAVCIEGYKPNDVVRILPCRHLFHKSCVDPWLLDHRTCPMCKMNILKALGIP
B10: RNF14 RING domain (UniProt Q9UBS8); chain IKCFNSKLFLCSICFCEKLGSECMYFLECRHVYCKACLKDYFEIQIRDGQVQCLNCPEPKCPSVATPGQVK
Construct (chain): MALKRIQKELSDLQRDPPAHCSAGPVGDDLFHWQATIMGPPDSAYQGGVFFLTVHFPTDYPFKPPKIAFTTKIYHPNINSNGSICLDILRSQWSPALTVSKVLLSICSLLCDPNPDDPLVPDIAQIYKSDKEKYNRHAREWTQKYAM
Sequence	lacZ reporter activity
MANWVFCNRCFQPPHRTSCFSLTNCGHVYCDACLGKGKKNECLICKAPCRTVLLSK (RNF212 RING domain (UniProt Q495C1))	0
B1 (PHF7 RING domain)	0
B2 (TRIM3 RING domain)	0
B3 (TRIM10 RING domain)	0
B4 (RNF149 RING domain)	0
B5 (TRIM35 RING domain)	0
B6 (RFPL2 RING domain)	0
B7 (RNF175 RING domain)	0
FLKKLEQSFMCVCCQELVYQPVTTECFHNVCKDCLQRSFKAQVFSCPACRHDLGQNYIMI (UHRF2 RING domain (UniProt Q96PU4))	7990
B8 (UBE4A RING domain)	2110
B9 (RNF150 RING domain)	11200
B10 (RNF14 RING domain)	0
ISNDSETLEECMVCSDMKRDTLFGPCGHIATCSLCSPRVKKCLICKEQVQSRTKIE (MIB1 RING domain (UniProt Q86YT6))	0

Sample 6
Target: Interferon regulatory factor 3, full length, phosphomimetic (IRF3, Homo sapiens, UniProt Q14653, residues 1-427, S386D/S396D/S398D/S402D/T404D/S405D)
Method: protein-binding microarray
Molecule type: double-stranded DNA, one strand shown
Sample: in vitro
Tested at: 2540 nM top
Setting: 60-bp whole probe
Together with: salmon DNA 0.4 mg/ml
Relative to: random background probes
Direction: higher = stronger binding
Shared flanks, not repeated: GCCTAGCAC … GTCTTGATTCGCTTGACGCTGCTG
Construct (chain): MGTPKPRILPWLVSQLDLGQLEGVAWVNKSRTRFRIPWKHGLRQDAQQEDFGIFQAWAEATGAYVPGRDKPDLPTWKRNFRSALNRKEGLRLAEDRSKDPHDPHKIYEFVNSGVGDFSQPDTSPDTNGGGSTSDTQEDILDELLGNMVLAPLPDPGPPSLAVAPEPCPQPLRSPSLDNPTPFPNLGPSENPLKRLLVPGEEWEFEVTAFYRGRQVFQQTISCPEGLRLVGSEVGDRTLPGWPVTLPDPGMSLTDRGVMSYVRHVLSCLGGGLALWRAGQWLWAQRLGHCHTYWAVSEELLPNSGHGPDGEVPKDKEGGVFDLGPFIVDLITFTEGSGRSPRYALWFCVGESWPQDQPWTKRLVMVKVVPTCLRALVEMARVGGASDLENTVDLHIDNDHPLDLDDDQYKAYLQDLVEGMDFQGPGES
Sequence	fitted relative affinity [z-score]
GACGAACGGAGTTTCGAGACGTGCTAG	1.41
TCATATTAGAGTCTCAAACTGTGCTAG	0.632
GACGAACTGAGCTTCGAGACGTGCTAG	-0.285
CTAGATATCAGTTTCGATTAGTGCTAG	4.97
TCAACTTTAGGTTCCCAACTGTGCTAG	2.15
TTAGAACTGGGGTTTCGATTTGTGCTA	2.47
TACGGACTGGACACTGGGGACGTGCTA	-0.593
GACGATATCGGAACTGGAGACGTGCTA	1.36
TTAGGTCCCGGTATCGGTTAGTGCTAG	1.69
GACGATTTCAGACTGTAGACGTGCTAG	1.09
GACGGTTTCGACTTGCGGGACGTGCTA	3.52
TCATTTTTGTAATCGAAAACTGTGCTA	1.82
GACGATCTCAGTTTCGAGAGGTGCTAG	1.87
TCAACTTTCTTAATGCTACTGTGCTAG	1.56
TTAGGACTGGGTATCGATTAGTGCTAG	-0.0446
TTAGATCTCAGACTGCATTAGTGCTAG	-0.128
CTAGTTGTGATTCTTTCGATGTGCTAG	1.7
CTGCCTCACATTGCTAAGACGTGCTAG	-0.0208
GACGGACTGGGTTCCGGGACGTGCTAG	-0.341
TCATCTAAAAAGTCTCTGACTGTGCTA	0.0562
GACGGACTGGGTCTCTGGACGTGCTAG	-0.95

Sample 7
Target: Sal-like protein 4, full length isoform A (SALL4, Homo sapiens, UniProt Q9UJQ4, residues 1-1053)
Chain of UniProt Q9UJQ4 (whole entry, looked up): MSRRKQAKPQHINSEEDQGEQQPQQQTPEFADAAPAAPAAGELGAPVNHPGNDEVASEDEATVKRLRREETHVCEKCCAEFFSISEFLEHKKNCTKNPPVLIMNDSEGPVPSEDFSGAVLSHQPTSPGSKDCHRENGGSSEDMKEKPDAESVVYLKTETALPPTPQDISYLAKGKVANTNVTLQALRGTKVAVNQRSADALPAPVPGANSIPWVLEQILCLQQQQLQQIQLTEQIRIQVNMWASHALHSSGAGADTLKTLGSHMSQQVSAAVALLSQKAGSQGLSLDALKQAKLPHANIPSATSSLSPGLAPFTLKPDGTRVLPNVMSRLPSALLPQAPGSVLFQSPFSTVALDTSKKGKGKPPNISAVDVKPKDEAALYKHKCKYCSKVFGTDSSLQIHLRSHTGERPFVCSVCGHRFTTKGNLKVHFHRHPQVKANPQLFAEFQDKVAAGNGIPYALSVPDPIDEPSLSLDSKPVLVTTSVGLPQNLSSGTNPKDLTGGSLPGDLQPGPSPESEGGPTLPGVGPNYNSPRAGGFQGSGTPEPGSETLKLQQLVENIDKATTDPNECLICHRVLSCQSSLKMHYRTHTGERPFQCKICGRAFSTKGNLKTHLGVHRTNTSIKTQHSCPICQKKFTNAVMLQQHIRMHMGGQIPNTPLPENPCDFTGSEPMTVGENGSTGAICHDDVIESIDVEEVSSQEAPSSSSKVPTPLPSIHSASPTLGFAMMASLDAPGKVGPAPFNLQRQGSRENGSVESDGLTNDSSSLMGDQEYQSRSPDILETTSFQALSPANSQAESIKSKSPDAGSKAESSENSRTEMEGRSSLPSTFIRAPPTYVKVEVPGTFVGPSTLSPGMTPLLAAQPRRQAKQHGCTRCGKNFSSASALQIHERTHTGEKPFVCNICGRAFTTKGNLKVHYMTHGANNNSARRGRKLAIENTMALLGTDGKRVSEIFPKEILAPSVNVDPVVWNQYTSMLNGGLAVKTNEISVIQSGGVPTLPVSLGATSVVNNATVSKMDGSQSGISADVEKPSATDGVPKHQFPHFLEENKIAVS
Method: universal PBM
Molecule type: double-stranded DNA, one strand shown
Sample: in vitro
Tested at: 600 nM
Setting: 8-mer, flanks averaged, mean of replicates
Direction: higher = stronger binding
Sequence	E-score
TCGACTCA	0.0983
ACAAGTGG	0.0782
GGAAAGTA	0.204
CGGTGTAG	-0.133
ATTCGTCA	0.0313
CGGAGCTA	-0.18
GAATCCAC	-0.0493
CCCCTGTC	-0.279
CTGTAGGA	-0.0745
GCATCAAA	0.171
AAAAAGCA	0.156
AGACCGCG	-0.22
AGACAACA	0.0704
CGAATTCA	-0.0519
ATTATAGG	0.33
CACAGTTC	-0.123
AGGAGGGG	-0.16
TCAAGGCA	0.0151
AGGAACAA	-0.0325
ATCAATGG	0.0589
GTCCACAA	0.058
AGGCAGAC	-0.139
GCGCACAA	-0.0316
CGATGGGA	-0.119
CTCTTGTC	-0.0373

A few entries again (sample 7):
Sequence	E-score
AGACAACA	0.0704
ATTATAGG	0.33
CGGAGCTA	-0.18
AAAAAGCA	0.156
ACAAGTGG	0.0782
AGGAACAA	-0.0325
TCAAGGCA	0.0151
GCGCACAA	-0.0316
GTCCACAA	0.058
GAATCCAC	-0.0493
CGGTGTAG	-0.133
CTCTTGTC	-0.0373
AGGCAGAC	-0.139
ATTCGTCA	0.0313
CTGTAGGA	-0.0745
GGAAAGTA	0.204
TCGACTCA	0.0983
GCATCAAA	0.171
